Experimental data pooled from the literature.
Numbers after ± are the reported error.

| SMILES | method | species | sample | route | dose | setting | Cmax |
| --- | --- | --- | --- | --- | --- | --- | --- |
| OCCc1ccc(O)c(O)c1 | – | obese male C57BL/6J mice | plasma | oral | 200 mg/kg | high-fat diet 8 weeks | 0.147 ± 0.031 µM |
| CC[C@H](C)[C@@H]1NC(=O)[C@H](Cc2ccc(O)cc2)NC(=O)[C@@H](N)CSSC[C@@H](C(=O)N2CCC[C@H]2C(=O)N[C@@H](CC(C)C)C(=O)NCC(N)=O)NC(=O)[C@H](CC(N)=O)NC(=O)[C@H](CCC(N)=O)NC1=O | microdialysis, radioimmunoassay | knock-out male mice lacking compound | hippocampus extracellular fluid | intraperitoneal | 12 µg total | – | 1.94 ± 0.85 pg/sample |
| CCCC1O[C@@H]2C[C@H]3[C@@H]4CCC5=CC(=O)C=C[C@]5(C)[C@H]4[C@@H](O)C[C@]3(C)[C@]2(C(=O)CO)O1 (stereo partly shown) | – | CD1 mice | plasma | subcutaneous | 0.2 mg/kg | – | 0.073 µM |
| Nc1cc(-c2ccccc2)ccc1Cn1cncc1CNc1ccc(-c2nc3ccccc3s2)c(-c2ccccc2)c1 | – | female BALB/c mice | plasma | oral | 50 mg/kg single dose | – | 5.8 µg/mL |
| COc1cc(/C=C/C(=O)CC(=O)/C=C/c2ccc(O)c(OC)c2)ccc1O | – | C57BL/6 mice, female | plasma | intramuscular | 40 µL of 6 mM | – | 0.59 µM |
| COc1ccc(CCC(C)=O)cc1 | – | male C57BL/6J mice low-fat diet | plasma | oral | 200 mg/kg | after enzymatic deconjugation | 0.079 ± 0.012 µM |
| O=C(O[C@@H]1Cc2c(O)cc(O)cc2O[C@@H]1c1cc(O)c(O)c(O)c1)c1cc(O)c(O)c(O)c1 | – | male CB17 SCID mice | plasma | intravenous | 50 mg/kg | earliest sampling 2 min | 224 µM |
| Cc1cc(Oc2nccc3occc23)ccc1-c1c(C)c(=O)[nH]c(=O)n1C | – | Swiss albino male mice | brain | intraperitoneal | 50 mg/kg | – | ~100 µM |
| CO[C@H]1C[C@@H]2CC[C@@H](C)[C@@](O)(O2)C(=O)C(=O)N2CCCC[C@H]2C(=O)O[C@H]([C@H](C)C[C@@H]2CC[C@@H](O)[C@H](OC)C2)CC(=O)[C@H](C)/C=C(\C)[C@@H](O)[C@@H](OC)C(=O)[C@H](C)C[C@H](C)/C=C/C=C/C=C/1C | – | NOD/SCID mice, male | blood or plasma | intraperitoneal | 0.5 mg/kg every 48 h | – | 0.983 ± 0.098 µg/mL |
| Cc1cc(Nc2cc3ncccc3c(N[C@@H]3C[C@H]4CC[C@@H](C3)N4CCC#N)n2)n[nH]1 | – | male BALB/c mice | plasma | oral | 10 mg/kg | – | 0.003 ± 0.002 µM |
| CC(=O)CCc1ccc(O)cc1 | – | normal-weight male C57BL/6J mice, low-fat diet | plasma | oral | 200 mg/kg | diet for 8 weeks | 236 ± 20 µM |
| OC[C@H]1O[C@@H](OCCc2ccc(O)cc2)[C@H](O)[C@@H](O)[C@@H]1O | – | Balb/c tumour-bearing mice | plasma | oral | 109.2 mg/kg SNZ | – | 0.292 µg/mL |
| CC(O)CCc1ccc(O)cc1 (stereo not shown) | – | normal-weight male C57BL/6J mice, low-fat diet | plasma | oral | 200 mg/kg of RK | diet for 8 weeks | 149 ± 15 µM |
| COc1ccc2c(c1OC)C(=O)O[C@@H]2[C@H]1c2c(cc3c(c2OC)OCO3)CCN1C | – | CD-1 mice, male | plasma | oral gavage | 50 mg/kg | – | 1.16 ± 0.0189 µg/mL |
| OCCc1ccc(O)cc1 | – | male C57BL/6J mice low-fat diet | plasma | oral | 200 mg/kg | diet 8 weeks | 15.3 ± 3.5 µM |
| O=c1c(O)c(-c2ccc(O)cc2)oc2cc(OS(=O)(=O)O)cc(O)c12 | – | FVB mice, male, Mdr1a^−/− | plasma | oral | 10 mg/kg of kaempferol | – | 0.141 ± 0.101 µM |

For quick reference, copied from above:
| SMILES | method | species | sample | route | dose | setting | Cmax |
| --- | --- | --- | --- | --- | --- | --- | --- |
| CC(O)CCc1ccc(O)cc1 (stereo not shown) | – | normal-weight male C57BL/6J mice, low-fat diet | plasma | oral | 200 mg/kg of RK | diet for 8 weeks | 149 ± 15 µM |
| COc1ccc2c(c1OC)C(=O)O[C@@H]2[C@H]1c2c(cc3c(c2OC)OCO3)CCN1C | – | CD-1 mice, male | plasma | oral gavage | 50 mg/kg | – | 1.16 ± 0.0189 µg/mL |
